Results pooled from the literature.
Compare with care: the assays were run in different laboratories. “And” joins repeats or separate records; there may be more than shown.
NEU1: Sialidase-1 (NEU1, Homo sapiens, UniProt Q99519)
HLA class I histocompatibility antigen, A alpha chain: HLA class I histocompatibility antigen, A alpha chain (Homo sapiens, UniProt P04439)
Proteasome component C5/PSMB5 chymotrypsin-like site: Proteasome component C5/PSMB5, chymotrypsin-like site (Homo sapiens, UniProt P20618+P28074)
Chain of UniProt P20618 (whole entry, looked up): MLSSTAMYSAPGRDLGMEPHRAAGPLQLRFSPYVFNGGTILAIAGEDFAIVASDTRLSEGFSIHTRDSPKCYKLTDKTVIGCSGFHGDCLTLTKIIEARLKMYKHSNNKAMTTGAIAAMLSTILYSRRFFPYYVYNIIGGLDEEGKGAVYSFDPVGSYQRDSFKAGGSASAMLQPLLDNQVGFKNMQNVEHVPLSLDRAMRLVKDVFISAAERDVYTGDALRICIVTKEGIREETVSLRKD
Chain of UniProt P28074 (whole entry, looked up): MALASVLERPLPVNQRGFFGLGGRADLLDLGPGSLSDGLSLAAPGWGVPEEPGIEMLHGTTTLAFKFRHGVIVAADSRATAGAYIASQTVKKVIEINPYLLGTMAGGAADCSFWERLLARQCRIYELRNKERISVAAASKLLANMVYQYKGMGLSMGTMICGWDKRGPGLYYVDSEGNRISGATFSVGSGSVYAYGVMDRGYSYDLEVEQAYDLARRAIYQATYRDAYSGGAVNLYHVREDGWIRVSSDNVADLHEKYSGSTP
USP7: Ubiquitin carboxyl-terminal hydrolase 7 (USP7, Homo sapiens, UniProt Q93009)
Chain of UniProt Q93009 (whole entry, looked up): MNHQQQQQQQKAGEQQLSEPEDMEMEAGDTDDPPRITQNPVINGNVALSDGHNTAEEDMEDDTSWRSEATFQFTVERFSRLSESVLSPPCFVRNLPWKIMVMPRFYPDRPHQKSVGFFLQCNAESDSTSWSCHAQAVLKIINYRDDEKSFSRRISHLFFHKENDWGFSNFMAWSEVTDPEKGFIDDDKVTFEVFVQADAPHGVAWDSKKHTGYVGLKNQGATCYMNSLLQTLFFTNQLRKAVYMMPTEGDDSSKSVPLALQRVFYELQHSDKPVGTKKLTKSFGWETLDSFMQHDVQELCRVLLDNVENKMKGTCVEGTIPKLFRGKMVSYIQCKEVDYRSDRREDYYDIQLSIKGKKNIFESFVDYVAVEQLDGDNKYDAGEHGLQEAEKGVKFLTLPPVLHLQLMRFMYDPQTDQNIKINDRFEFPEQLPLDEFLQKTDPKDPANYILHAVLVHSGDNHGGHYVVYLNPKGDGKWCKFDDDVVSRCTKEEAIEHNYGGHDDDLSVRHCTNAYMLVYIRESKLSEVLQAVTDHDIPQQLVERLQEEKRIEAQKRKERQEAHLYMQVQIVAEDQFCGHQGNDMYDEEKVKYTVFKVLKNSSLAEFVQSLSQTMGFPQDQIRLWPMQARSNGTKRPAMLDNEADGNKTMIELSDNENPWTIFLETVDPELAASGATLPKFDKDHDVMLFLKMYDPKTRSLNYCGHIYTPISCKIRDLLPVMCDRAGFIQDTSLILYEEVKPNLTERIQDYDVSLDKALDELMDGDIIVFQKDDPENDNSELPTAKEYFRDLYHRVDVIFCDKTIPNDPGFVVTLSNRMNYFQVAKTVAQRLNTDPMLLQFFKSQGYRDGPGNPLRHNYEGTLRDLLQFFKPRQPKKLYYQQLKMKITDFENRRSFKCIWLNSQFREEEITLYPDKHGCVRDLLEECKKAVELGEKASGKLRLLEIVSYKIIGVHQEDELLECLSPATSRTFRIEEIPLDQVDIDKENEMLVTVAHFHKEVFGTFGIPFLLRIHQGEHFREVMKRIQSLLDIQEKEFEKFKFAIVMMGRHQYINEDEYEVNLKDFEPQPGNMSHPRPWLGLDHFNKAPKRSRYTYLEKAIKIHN
Chain of UniProt O42275 (whole entry, looked up): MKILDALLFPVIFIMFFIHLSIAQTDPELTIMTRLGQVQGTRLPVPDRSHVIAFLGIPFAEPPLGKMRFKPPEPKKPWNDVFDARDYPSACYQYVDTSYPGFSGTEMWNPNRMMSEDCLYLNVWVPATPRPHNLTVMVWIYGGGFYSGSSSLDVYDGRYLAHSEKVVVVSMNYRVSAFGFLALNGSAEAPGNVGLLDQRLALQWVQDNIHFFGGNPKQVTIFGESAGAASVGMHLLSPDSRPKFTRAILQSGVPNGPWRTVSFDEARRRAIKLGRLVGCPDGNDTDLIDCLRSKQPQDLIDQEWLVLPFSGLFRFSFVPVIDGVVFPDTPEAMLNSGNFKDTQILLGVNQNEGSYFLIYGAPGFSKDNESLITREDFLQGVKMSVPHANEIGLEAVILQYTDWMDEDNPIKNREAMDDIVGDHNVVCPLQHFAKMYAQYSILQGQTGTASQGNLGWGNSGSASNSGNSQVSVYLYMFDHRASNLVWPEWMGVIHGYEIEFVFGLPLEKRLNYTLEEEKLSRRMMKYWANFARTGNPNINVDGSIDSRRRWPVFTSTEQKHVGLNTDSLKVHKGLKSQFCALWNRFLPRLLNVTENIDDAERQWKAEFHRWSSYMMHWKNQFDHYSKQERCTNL
Chain of UniProt C7C422 (whole entry, looked up): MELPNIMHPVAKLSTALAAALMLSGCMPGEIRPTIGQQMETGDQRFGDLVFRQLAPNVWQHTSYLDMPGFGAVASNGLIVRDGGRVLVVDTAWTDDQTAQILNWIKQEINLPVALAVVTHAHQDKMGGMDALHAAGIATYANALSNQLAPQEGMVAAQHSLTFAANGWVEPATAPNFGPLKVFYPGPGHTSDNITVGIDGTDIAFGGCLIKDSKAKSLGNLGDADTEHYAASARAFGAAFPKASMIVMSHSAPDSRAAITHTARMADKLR
Chain of UniProt P52895 (whole entry, looked up): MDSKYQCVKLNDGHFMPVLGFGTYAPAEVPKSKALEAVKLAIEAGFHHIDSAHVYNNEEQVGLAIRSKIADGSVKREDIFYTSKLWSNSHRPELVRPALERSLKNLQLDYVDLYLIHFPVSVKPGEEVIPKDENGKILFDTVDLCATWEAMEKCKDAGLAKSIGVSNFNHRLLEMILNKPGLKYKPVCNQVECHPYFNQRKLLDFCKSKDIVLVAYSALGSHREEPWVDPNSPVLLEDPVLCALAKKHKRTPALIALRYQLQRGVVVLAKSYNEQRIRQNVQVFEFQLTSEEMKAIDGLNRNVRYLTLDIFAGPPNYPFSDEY
Chain of UniProt P27487 (whole entry, looked up): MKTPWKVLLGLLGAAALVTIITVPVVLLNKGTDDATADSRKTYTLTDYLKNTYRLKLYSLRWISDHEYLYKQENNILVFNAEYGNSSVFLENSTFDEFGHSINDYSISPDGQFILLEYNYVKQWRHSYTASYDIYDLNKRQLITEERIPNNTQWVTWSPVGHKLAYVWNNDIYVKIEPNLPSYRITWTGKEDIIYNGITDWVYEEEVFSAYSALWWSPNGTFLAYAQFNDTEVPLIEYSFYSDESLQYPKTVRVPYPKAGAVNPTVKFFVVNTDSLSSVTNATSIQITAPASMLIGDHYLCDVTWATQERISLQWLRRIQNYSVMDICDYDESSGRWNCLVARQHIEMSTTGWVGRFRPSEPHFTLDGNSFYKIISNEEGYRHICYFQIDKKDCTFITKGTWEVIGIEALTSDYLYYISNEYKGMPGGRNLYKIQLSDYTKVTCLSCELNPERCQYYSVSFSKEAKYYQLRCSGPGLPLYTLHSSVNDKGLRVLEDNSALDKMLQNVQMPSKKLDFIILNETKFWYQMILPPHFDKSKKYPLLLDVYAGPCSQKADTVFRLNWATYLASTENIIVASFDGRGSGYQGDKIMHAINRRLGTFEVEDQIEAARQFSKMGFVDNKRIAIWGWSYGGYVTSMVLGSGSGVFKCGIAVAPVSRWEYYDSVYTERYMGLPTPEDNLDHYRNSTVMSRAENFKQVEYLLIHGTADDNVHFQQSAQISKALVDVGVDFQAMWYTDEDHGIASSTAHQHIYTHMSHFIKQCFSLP
Chain of UniProt P42574 (whole entry, looked up): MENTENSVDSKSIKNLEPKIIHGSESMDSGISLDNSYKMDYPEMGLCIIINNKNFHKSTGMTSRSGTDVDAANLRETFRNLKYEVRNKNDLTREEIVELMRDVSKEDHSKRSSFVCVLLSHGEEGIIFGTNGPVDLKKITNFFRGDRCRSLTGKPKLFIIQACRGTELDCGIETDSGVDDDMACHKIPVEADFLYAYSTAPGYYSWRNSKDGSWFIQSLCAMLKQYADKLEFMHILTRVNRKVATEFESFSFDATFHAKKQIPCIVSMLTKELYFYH
Chain of UniProt Q92499 (whole entry, looked up): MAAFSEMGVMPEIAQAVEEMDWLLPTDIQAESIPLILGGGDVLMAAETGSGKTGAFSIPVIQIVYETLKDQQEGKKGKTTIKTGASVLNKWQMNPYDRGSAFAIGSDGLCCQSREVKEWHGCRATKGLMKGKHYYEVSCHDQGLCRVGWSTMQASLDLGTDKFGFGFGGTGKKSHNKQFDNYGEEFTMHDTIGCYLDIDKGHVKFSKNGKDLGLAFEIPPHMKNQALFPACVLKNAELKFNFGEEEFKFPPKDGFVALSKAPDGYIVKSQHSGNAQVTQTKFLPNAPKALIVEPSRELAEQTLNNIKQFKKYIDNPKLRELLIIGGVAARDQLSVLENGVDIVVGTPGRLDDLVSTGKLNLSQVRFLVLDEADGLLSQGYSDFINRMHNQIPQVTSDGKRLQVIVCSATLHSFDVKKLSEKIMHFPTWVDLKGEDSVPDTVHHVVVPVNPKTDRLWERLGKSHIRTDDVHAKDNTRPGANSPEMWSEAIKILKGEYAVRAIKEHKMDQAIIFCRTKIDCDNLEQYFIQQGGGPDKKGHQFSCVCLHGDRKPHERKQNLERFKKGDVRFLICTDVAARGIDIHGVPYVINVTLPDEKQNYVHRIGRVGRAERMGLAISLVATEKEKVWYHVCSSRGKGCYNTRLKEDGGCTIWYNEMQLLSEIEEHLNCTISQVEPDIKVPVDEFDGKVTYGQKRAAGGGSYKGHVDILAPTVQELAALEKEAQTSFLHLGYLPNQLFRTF
Chain of UniProt O60911 (whole entry, looked up): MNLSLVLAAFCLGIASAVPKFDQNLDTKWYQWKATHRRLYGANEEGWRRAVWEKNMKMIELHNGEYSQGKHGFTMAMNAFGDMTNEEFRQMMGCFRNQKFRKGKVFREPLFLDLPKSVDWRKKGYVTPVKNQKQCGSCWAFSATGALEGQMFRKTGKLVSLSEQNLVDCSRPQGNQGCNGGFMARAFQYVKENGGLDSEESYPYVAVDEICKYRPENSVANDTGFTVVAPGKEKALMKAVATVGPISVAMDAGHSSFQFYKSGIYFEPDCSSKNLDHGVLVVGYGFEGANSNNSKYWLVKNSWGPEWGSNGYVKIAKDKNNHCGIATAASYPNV

Structure (SMILES) | target | assay | conditions | endpoint | value
CCCCCCN[C@H]1[C@H]([C@H](O)[C@H](O)CO)OC(C(=O)O)=C[C@@H]1O | NEU1 | enzyme activity, inhibitor |  | IC50 | 95000 nM
CSCC[C@H](NC(=O)[C@H](Cc1c[nH]cn1)NC(=O)[C@H](Cc1ccccc1)NC(=O)[C@@H]1CCCN1C(=O)[C@H](CCCCN)NC(=O)[C@H](CCC(=O)O)NC(=O)[C@H](Cc1c[nH]c2ccccc12)NC(=O)[C@H](CC(C)C)NC(=O)[C@@H](N)CCCNC(=N)N)C(=O)O | HLA class I histocompatibility antigen, A alpha chain | cell-free assay |  | IC50 | 830 nM
O=C(O)c1cc[c]([Hg][Cl])cc1 | Metallo-beta-lactamase type 2 (blaNDM-1, Klebsiella pneumoniae, UniProt C7C422) | enzyme activity, inhibitor |  | IC50 | 2300 nM and 2000 nM
CCCCCCCCCC(=O)N[C@@H](C)C(=O)N[C@@H](Cc1ccc(OC)cc1)C(=O)N[C@@H](CC(C)C)C(=O)C(=O)Nc1ccccc1 | Proteasome component C5/PSMB5 chymotrypsin-like site | enzyme activity in cells, inhibitor |  | IC50 | 229 nM
CCC(C(=O)Nc1cc(NC2COC2)ccc1C)n1cc(Br)cc2nc(SCc3ccc(F)cc3)nc1-2 (centres unmarked) | USP7 | enzyme activity, inhibitor |  | IC50 | > 100000 nM
CC(C)C[C@H](NC(=O)[C@H]1O[C@@H]1C(=O)O)C(=O)NCCCCN=C(N)N | Cathepsin L2 (CTSV, Homo sapiens, UniProt O60911) | enzyme activity, inhibitor |  | IC50 | 3.3 nM
O=c1c(O)c(-c2ccc(O[C@@H]3O[C@H](CO)[C@@H](O)[C@H](O)[C@H]3O)c(O)c2)oc2cc(O)cc(O)c12 | Acetylcholinesterase (ache, Electrophorus electricus, UniProt O42275) | enzyme activity, inhibitor, Ellman |  | IC50 | 4.44 nM and 7.88 nM
CCC(C(=O)Nc1cc(NC2CCOCC2)ccc1C)n1cc(Br)cc2nc(SCc3ccc(F)cc3)nc1-2 (centres unmarked) | Caspase-3 (CASP3, Homo sapiens, UniProt P42574) | enzyme activity, inhibitor |  | IC50 | > 100000 nM
O=C(N1CCC2(CC1)C[C@@H](CN1CCCCS1(=O)=O)CCO2)C1(c2ccccc2)CCCC1 | ATP-dependent RNA helicase DDX1 (Homo sapiens, UniProt Q92499) | ATPase activity, inhibitor |  | IC50 | > 50000 nM
CC(C)[C@H](N)C(=O)N1CCC[C@H]1C(=O)N[C@H](C(=O)N1CCC[C@H]1C(=O)N1CCC[C@H]1C(=O)O)C(C)C | Dipeptidyl peptidase 4 (DPP4, Homo sapiens, UniProt P27487) | enzyme activity, inhibitor, absorbance | pH 8 | IC50 | 324000 nM
O=C(C[C@@H](C(F)F)n1ccc(F)n1)N1CCC(O)(Cn2cnc3c(cnn3-c3ccc(F)cc3)c2=O)CC1 | USP7 | enzyme activity, inhibitor |  | IC50 | 110 nM
CCCCOc1cc(C(=O)NCCN(CC)CC)c2ccccc2n1 | PKD2L1 (Homo sapiens, UniProt Q9P0L9, F549H) | ion current, inhibitor, patch clamp |  | IC50 | 17200 nM
CC[C@H](C)[C@H](NC(=O)[C@H](CO)NC(=O)[C@H](Cc1ccc(O)cc1)NC(=O)[C@@H](NC(=O)[C@@H](N)CCCCN)C(C)C)C(=O)N1CCC[C@H]1C(=O)N[C@@H](Cc1c[nH]cn1)C(=O)N[C@@H](CCC(N)=O)C(=O)N[C@@H](CCSC)C(=O)O | HLA class I histocompatibility antigen, A alpha chain | cell-free assay |  | IC50 | 368 nM
Cc1cn([C@H]2[C@H]([C@H](O)[C@H](O)CO)OC(C(=O)O)=C[C@@H]2O)nn1 | NEU1 | enzyme activity, inhibitor |  | IC50 | 1500 nM
O=C(O)C(F)(F)C(F)(F)C(F)(F)C(F)(F)C(F)(F)C(F)(F)C(F)(F)C(F)(F)C(F)(F)C(F)(F)C(F)(F)F | Aldo-keto reductase family 1 member C2 (AKR1C2, Homo sapiens, UniProt P52895) | enzyme activity, inhibitor, fluorescence |  | IC50 | 15100 nM
[2H]c1c([2H])c([C@]2([2H])CCCN2C(=O)C(C)(C)Oc2ccc3cn[nH]c3c2)c([2H])c([2H])c1C([2H])([2H])[2H] | Serine/threonine-protein kinase D1 (PRKD1, Homo sapiens, UniProt Q15139) | binding, competition with immobilised ligand | 1 µM | remaining binding | 77%
CC[C@H](C)[C@H](NC(=O)[C@@H]1CCCN1C(=O)[C@H](CCCCN)NC(=O)[C@H](Cc1ccc(O)cc1)NC(=O)[C@H](CCSC)NC(=O)[C@@H](N)CCCNC(=N)N)C(=O)N[C@H](C(=O)N[C@@H](Cc1c[nH]cn1)C(=O)N[C@@H](Cc1ccccc1)C(=O)O)[C@@H](C)O | HLA class I histocompatibility antigen, A alpha chain | cell-free assay |  | IC50 | 14 nM
CC(C)C[C@H](NC(=O)OCc1ccccc1)C(=O)N[C@@H](CC(C)C)C(=O)N[C@@H](CC(C)C)C(=O)C(=O)Nc1ccccc1 | Proteasome component C5/PSMB5 chymotrypsin-like site | enzyme activity in cells, inhibitor |  | IC50 | 33.9 nM
CSCC[C@H](NC(=O)[C@@H](N)CCCNC(=N)N)C(=O)N[C@@H](Cc1ccc(O)cc1)C(=O)N[C@@H](CC(=O)O)C(=O)N[C@@H](CCCNC(=N)N)C(=O)N[C@@H](Cc1c[nH]cn1)C(=O)N[C@@H](Cc1ccc(O)cc1)C(=O)N[C@@H](CC(C)C)C(=O)N[C@@H](Cc1ccccc1)C(=O)O | HLA class I histocompatibility antigen, A alpha chain | cell-free assay |  | IC50 | 60 nM
CC(C)Cc1cn([C@H]2[C@H]([C@H](O)[C@H](O)CO)OC(C(=O)O)=C[C@@H]2O)nn1 | NEU1 | enzyme activity, inhibitor |  | IC50 | 70000 nM
CC[C@H](C)[C@H](NC(=O)[C@@H]1CCCN1C(=O)[C@H](CO)NC(=O)[C@H](CCSC)NC(=O)[C@H](CCC(N)=O)NC(=O)[C@@H](N)CCCCN)C(=O)N[C@@H](Cc1c[nH]c2ccccc12)C(=O)N[C@H](C(=O)N[C@@H](Cc1ccc(O)cc1)C(=O)O)[C@@H](C)O | HLA class I histocompatibility antigen, A alpha chain | cell-free assay |  | IC50 | 669 nM
COc1ccc(C[C@H](NC(=O)[C@H](C)NC(=O)c2ccc(-c3ccc(C(C)=O)cc3)o2)C(=O)N[C@@H](CC(C)C)C(=O)C(=O)Nc2ccccc2)cc1 | Proteasome component C5/PSMB5 chymotrypsin-like site | enzyme activity in cells, inhibitor |  | IC50 | 52.5 nM
CSCC[C@H](NC(=O)[C@H](Cc1ccc(O)cc1)NC(=O)[C@@H](NC(=O)[C@@H]1CCCN1C(=O)[C@H](Cc1ccc(O)cc1)NC(=O)[C@H](CCC(N)=O)NC(=O)[C@@H](N)Cc1c[nH]cn1)C(C)C)C(=O)N[C@@H](CCC(N)=O)C(=O)N[C@@H](Cc1ccc(O)cc1)C(=O)O | HLA class I histocompatibility antigen, A alpha chain | cell-free assay |  | IC50 | 147 nM
CCC(C(=O)Nc1cc(NC2CCNCC2)ccc1C)n1cc(Cl)cc2nc(SCc3ccc(F)cc3)nc1-2 (centres unmarked) | Cathepsin B (CTSB, Homo sapiens, UniProt P07858) | enzyme activity, inhibitor |  | IC50 | > 100000 nM
CC(C)[C@H](NC(=O)[C@H](Cc1c[nH]cn1)NC(=O)[C@H](CCC(=O)O)NC(=O)[C@H](Cc1ccccc1)NC(=O)[C@H](CCC(N)=O)NC(=O)[C@H](C)N)C(=O)N1CCC[C@H]1C(=O)N[C@@H](CCC(N)=O)C(=O)N[C@@H](Cc1ccc(O)cc1)C(=O)O | HLA class I histocompatibility antigen, A alpha chain | cell-free assay |  | IC50 | 100 nM
CCC(C(=O)Nc1cc(NC2CNC2)ccc1C)n1cccc2nc(SCc3ccc(F)cc3)nc1-2 (centres unmarked) | Serine protease 1 (PRSS1, Homo sapiens, UniProt P07477) | enzyme activity, inhibitor |  | IC50 | > 100000 nM

Some of these lines once more:
Structure (SMILES) | target | assay | conditions | endpoint | value
[2H]c1c([2H])c([C@]2([2H])CCCN2C(=O)C(C)(C)Oc2ccc3cn[nH]c3c2)c([2H])c([2H])c1C([2H])([2H])[2H] | Serine/threonine-protein kinase D1 (PRKD1, Homo sapiens, UniProt Q15139) | binding, competition with immobilised ligand | 1 µM | remaining binding | 77%
CCCCCCN[C@H]1[C@H]([C@H](O)[C@H](O)CO)OC(C(=O)O)=C[C@@H]1O | NEU1 | enzyme activity, inhibitor |  | IC50 | 95000 nM
CC[C@H](C)[C@H](NC(=O)[C@@H]1CCCN1C(=O)[C@H](CO)NC(=O)[C@H](CCSC)NC(=O)[C@H](CCC(N)=O)NC(=O)[C@@H](N)CCCCN)C(=O)N[C@@H](Cc1c[nH]c2ccccc12)C(=O)N[C@H](C(=O)N[C@@H](Cc1ccc(O)cc1)C(=O)O)[C@@H](C)O | HLA class I histocompatibility antigen, A alpha chain | cell-free assay |  | IC50 | 669 nM
